Experimental data pooled from the literature.
Parts stem from different laboratories: compare values within a part only. Positions count from the first letter of the parent shown.

Study 1
Target: CCNE1, cyclin fold, Cln2 fusion (human)
Method: yeast growth competition, sequencing
Medium: yeast
Notes: weak parent motif
Reference: not given
Direction: higher = stronger binding
Starting sequence: MASTL docking peptide (human); PMIAKNLMCELDE
| Variant | normalised enrichment score |
| --- | --- |
| PMIQKNLMCELDE [A4Q] | -0.218 |
| PMIAKNNMCELDE [L7N] | 0.141 |
| PMYAKNLMCELDE [I3Y] | 0.451 |
| PMIAKNLMCELRE [D12R] | -0.111 |
| PMIAKNLSCELDE [M8S] | -0.0765 |
| PMIAKNVMCELDE [L7V] | -0.679 |
| PMDAKNLMCELDE [I3D] | -0.178 |

Study 2
Target: TAR DNA-binding protein 43, full length, His tag (TARDBP, Homo sapiens, UniProt Q13148, residues 1-414)
Method: RNA Bind-n-Seq
Molecule type: RNA
Medium: in vitro
Tested at: 20 nM
Notes: 6-mer, flanks averaged, single round
Together with: 150 mM LiCl
Reference: input library
Direction: higher = stronger binding
| Sequence | 6-mer enrichment (R) |
| --- | --- |
| GCUGAU | 0.927 |
| AUUAGG | 0.981 |
| GGAUCA | 0.899 |
| UGUCGC | 0.991 |
| UAGCAA | 0.862 |
| UAUACC | 0.912 |
| UAGCGG | 1 |
| CCCGGA | 0.918 |
| CUGAAU | 0.892 |
| ACGUAC | 0.825 |

Study 3
Target: Interferon regulatory factor 5, full length, phosphomimetic (IRF5, Homo sapiens, UniProt Q13568-2, residues 1-514, S451D/S453D/S456D/S462D)
Method: protein-binding microarray
Molecule type: double-stranded DNA, one strand shown
Medium: in vitro
Tested at: 940 nM top
Notes: 60-bp whole probe
Together with: salmon DNA 0.4 mg/ml
Reference: random background probes
Direction: higher = stronger binding
All sequences stand within: GCCTAGCAC … GTCTTGATTCGCTTGACGCTGCTG
| Sequence | fitted relative affinity [z-score] |
| --- | --- |
| TTAGGACTGCTTCTCCATTAGTGCTAG | -0.24 |
| TTAGATATCAGTCACGATTAGTGCTAG | 0.0897 |
| TCATTTATCAATCATTTTACTGTGCTA | 1.09 |
| TTAGGTTCCGGTTGCGGTTAGTGCTAG | 4.36 |
| TTAGGACTGGGTAACGGTTAGTGCTAG | -0.192 |
| GGCGATCTCAGTTTCGAGACGTGCTAG | 4.89 |
| TTAGATCTCGGTCTCGGTTAGTGCTAG | 3.63 |
| GACGAACTGGGGTATCGAGAGGTGCTA | 0.42 |
| TTATGTCTCCTTCTCCTTTAGTGCTAG | 1.06 |
| TTAGGACCGCTTATCCTTTAGTGCTAG | -0.0663 |
| TTAGATGTCGGGACTGGATTAGTGCTA | -0.179 |
| GACGACATCAGACTGGAGACGTGCTAG | -0.538 |

Further values, each from its own experiment
| Substance | target | assay | test system | setting | scale | measurement | result |
| --- | --- | --- | --- | --- | --- | --- | --- |
| PhoQ, residues 284 288 289 292 302 303 GLASVI | PhoP, residues 12 14 15 18 19 IQFRS (Escherichia coli, UniProt P23836) | Sort-seq, measured: YFP reporter | E. coli | PhoQ-PhoP variant library, together with: 10 µM Mg2+ | reference: high Mg2+ state, higher = stronger signaling | fold induction | 16.8 |

Repeated from above (study 3):
| Sequence | fitted relative affinity [z-score] |
| --- | --- |
| TTATGTCTCCTTCTCCTTTAGTGCTAG | 1.06 |
| TTAGGACTGCTTCTCCATTAGTGCTAG | -0.24 |
